Published values from different studies.
Protocols differ between the studies behind these lines.

SMILES | system | setting | Tmax [h]
CCn1c2ccccc2c2cc(-n3nncc3-c3ccccc3)ccc21 | female BALB/c mouse, spleen | oral, 10 mg/kg, single dose | 4.1
O=C1C(=Cc2ccccn2)CNCC1=Cc1ccccn1 | male mouse, plasma | intraperitoneal, 25 mg/kg | ≤ 0.5
CC(=O)N[C@H]1CC[C@H](NC(=O)CN2CCN(c3nncc(-c4ccc(C)cc4)n3)CC2)CC1 | human, plasma | oral, 5 mg, single dose, fasted, healthy volunteers | 1.5
CNc1nc(Nc2ccc(-n3cnc(C)n3)c(OC)c2)nc2c1CC[C@H]2c1ccc(F)cc1 | human, plasma | oral, 900 mg, single dose, healthy volunteers | 4
C[C@@H]1CCC[C@H](n2cnc(-c3cc(Cl)ccc3-n3cc(Cl)nn3)cc2=O)c2cc(ccn2)-c2c(cnn2C(F)F)NC1=O | human, plasma | oral, 500 mg, single dose, fed, healthy volunteers | 4
COc1cccc(-c2n[nH]c(SCc3ccccn3)n2)c1OC | Sprague-Dawley rat, both sexes, plasma | oral, diet, 10 mg/kg/day, day 90 | 6
CCCOc1ccc([C@H]2CNC(=O)N2c2ccc3[nH]cnc3c2)cc1 | human, plasma | oral, 300 mg, multiple doses, twice daily, fasted | 1
CCN1CCN(c2ccc(Nc3cc(N(C)C(=O)Nc4c(Cl)c(OC)cc(OC)c4Cl)ncn3)cc2)CC1 | Crl:WI(Han) rat, juvenile female, plasma | oral gavage, 1.0 mg/kg/day, postnatal day 17 | 3
C#C[C@]1(CO)O[C@@H](n2cnc3c(N)nc(F)nc32)C[C@@H]1O | human, plasma | oral, 30 mg, single dose, fed | 1.75
CCCC[C@H](NC(C)=O)C(=O)N[C@H]1CCC(=O)NC[C@@H](C(=O)N[C@@H](Cc2c[nH]c3ccccc23)C(N)=O)NC(=O)[C@H](CCCNC(=N)N)NC(=O)[C@@H](Cc2ccccc2)NC(=O)[C@H](Cc2c[nH]cn2)NC1=O | CD Sprague Dawley rat, female, plasma | subcutaneous, 5.0 mg/kg daily, day 1 | 0.5
CNC(=O)c1ccccc1Nc1cc(Nc2ccc(N3CCOCC3)cc2OC)ncc1C(F)(F)F | BALB/c mouse, plasma | intraperitoneal, 30 mg/kg, single dose | ≤ 0.25
Cc1nc2cccc(OCC(C)(C)C(=O)NC(C)C)c2c(N)c1C(=O)O | male Sprague-Dawley rat, plasma | dietary, 60 mg/kg/day, day 90 | 6
CC(=O)O[C@@]12CO[C@@H]1C[C@H](O)[C@@]1(C)C(=O)[C@H](O)C3=C(C)[C@@H](OC(=O)[C@H](O)[C@@H](NC(=O)OC(C)(C)C)c4ccccc4)C[C@@](O)([C@@H](OC(=O)c4ccccc4)[C@H]21)C3(C)C | male Kunming mouse, lung | oral, 20 mg/kg | 0.25
CS(=O)(=O)c1ccc(-c2cnc(N)c(-c3ccc(C(F)(F)F)nc3)c2)cc1 | pregnant female Sprague-Dawley rat, plasma | oral, 10 mg/kg/day, gestation day 17 | 4
Nc1ncc(-c2cnn(CCO)c2)c2scc(-c3ccc(NC(=O)Nc4cccc(F)c4)cc3)c12 | human, plasma | oral, 160 mg, patients | 3.3

For quick reference, copied from above:
SMILES | system | setting | Tmax [h]
Nc1ncc(-c2cnn(CCO)c2)c2scc(-c3ccc(NC(=O)Nc4cccc(F)c4)cc3)c12 | human, plasma | oral, 160 mg, patients | 3.3
